Measurements gathered from unrelated publications.
Lines come from different studies, so protocols differ. Numbers after ± are the reported error.

The IC10 of `Cc1cc(O)ccc1Cl` is reported as 367 µM (SH-SY5Y; cell viability, propidium iodide staining; 24 h, freely dissolved concentration).
`CC[C@H](C)CCCCC(=O)N[C@@H](CCN)C(=O)N[C@H](C(=O)N[C@@H](CCN)C(=O)N[C@H]1CCNC(=O)[C@H]([C@@H](C)O)NC(=O)[C@H](CCN)NC(=O)[C@H](CCN)NC(=O)[C@H](CC(C)C)NC(=O)[C@@H](Cc2ccccc2)NC(=O)[C@H](CCN)NC1=O)[C@@H](C)O` has an HD50 of 350 µg/mL (human erythrocytes; hemolysis; pH 7.2; baseline: water complete hemolysis).
With `COc1cc2c(cc1N1C[C@@H](C)N[C@@H](C)C1)N(C(=O)c1ccc(-c3ccc(-c4noc(C)n4)cc3C)cc1)CC2` the CC50 was 19 µM (293T-ACE2; 40 (unit not given)).
For `N=C(N)NCCC[C@H](NC(=O)[C@H](Cc1c[nH]c2ccccc12)NC(=O)[C@H](CCCNC(=N)N)NC(=O)[C@H](Cc1c[nH]c2ccccc12)NC(=O)[C@H](Cc1c[nH]c2ccccc12)NC(=O)[C@H](Cc1c[nH]c2ccccc12)NC(=O)[C@H](CCCNC(=N)N)NC(=O)[C@H](Cc1c[nH]c2ccccc12)NC(=O)[C@@H](N)CCCNC(=N)N)C(=O)N[C@@H](Cc1c[nH]c2ccccc12)C(N)=O`, the LC50 was 477 µM (HD11 macrophages).
Under “minimum cytotoxic concentration”, `Cc1cc(C)c(/C=C/c2nc(N)[nH]c(=O)c2Br)c(C)c1` is recorded as 100 µM (HEL human embryonic lung fibroblasts; cell morphology alteration).
`Oc1ccc(C(c2ccc(O)cc2)(C(F)(F)F)C(F)(F)F)cc1`: “late apoptotic cells” 10.5 ± 4.59% (HepG2 spheroids, dissociated; annexin V-FITC/PI flow cytometry; 0.1 µM, 24 h).
For `O=C(O)C(F)(F)C(F)(F)C(F)(F)C(F)(F)C(F)(F)C(F)(F)C(F)(F)C(F)(F)C(F)(F)C(F)(F)F`, “LDH activity in medium” read 24.3 mU/mL (hTERT-RPTEC parental; LDH release; culture medium; concentration not given, 24 h, 96-well plate).
For `CC(C)(c1ccc(O)cc1)c1ccc(O)cc1`, the necrotic cells was 30.7 ± 11.1% (HepG2 spheroids; annexin V-FITC/PI flow cytometry; 0.01 µM, 96 h).
For `O=c1ccc2ccccc2o1`, “probability of response” read 16.2% (HepG2; refers to: mitochondrial reserve capacity; concentration not given, 1 h, Seahorse mitochondrial toxicity panel).
`Nc1cnn(-c2ccccc2)c(=O)c1Cl` gave an IC10 of 1260 µM (HEK293-H PPARγ-UAS-bla cells; cell viability, IncuCyte imaging; 24 h, freely dissolved concentration).
`COc1cc2c(c(OC)c1OC)-c1ccc(OC)c(=O)cc1[C@@H](NC(C)=O)CC2`: “binucleated cells with micronuclei” 5.8% (CHO-WBL; 0.16 µg/mL, 19 h, without S9).
For `Nc1nc(CC(O)c2ccc(Cl)cc2)c(Br)c(=O)[nH]1` (centres unmarked), “minimum cytotoxic concentration” read over 100 µM (HEL human embryonic lung fibroblasts; cell morphology alteration).
For `C[C@H](NC(=O)[C@H](Cc1ccc(O)cc1)NC(=O)[C@H](CCCNC(=N)N)NC(=O)[C@H](CCCNC(=N)N)NC(=O)[C@H](CCCNC(=N)N)NC(=O)[C@@H](N)CCCNC(=N)N)C(=O)N[C@@H](CCCNC(=N)N)C(=O)N1CCC[C@H]1C(=O)N[C@@H](Cc1ccc(O)cc1)C(=O)N[C@@H](Cc1ccc(O)cc1)C(=O)N[C@@H](CCCNC(=N)N)C(=O)N[C@@H](CCCNC(=N)N)C(=O)N[C@@H](CCCNC(=N)N)C(=O)O`, the viability was 93.8 ± 1.81% (DF-1; LDH release; 1 µM, 1 h).
The transport rate of `CC[C@H](C)[C@H](NC(=O)[C@@H](N)CC(N)=O)C(=O)N1CCC[C@H]1C(=O)N1CCC[C@H]1C(=O)N[C@@H](CC(C)C)C(=O)N[C@H](C(=O)N[C@@H](CCC(N)=O)C(=O)N[C@H](C(=O)N1CCC[C@H]1C(=O)N[C@H](C(=O)N[C@H](C(=O)N[C@H](C(=O)N1CCC[C@H]1C(=O)N1CCC[C@H]1C(=O)N[C@@H](Cc1ccccc1)C(=O)N[C@@H](CC(C)C)C(=O)N[C@@H](CCC(N)=O)C(=O)N1CCC[C@H]1C(=O)N[C@@H](CCC(=O)O)C(=O)O)C(C)C)C(C)C)C(C)C)[C@@H](C)O)[C@@H](C)O` is reported as 67.9 ± 5% (Caco-2 monolayers; 10 µM, 60 min, added: Gly-Pro 10 mM preincubated 30 min; baseline: no Gly-Pro).

For quick reference, copied from above:
For `N=C(N)NCCC[C@H](NC(=O)[C@H](Cc1c[nH]c2ccccc12)NC(=O)[C@H](CCCNC(=N)N)NC(=O)[C@H](Cc1c[nH]c2ccccc12)NC(=O)[C@H](Cc1c[nH]c2ccccc12)NC(=O)[C@H](Cc1c[nH]c2ccccc12)NC(=O)[C@H](CCCNC(=N)N)NC(=O)[C@H](Cc1c[nH]c2ccccc12)NC(=O)[C@@H](N)CCCNC(=N)N)C(=O)N[C@@H](Cc1c[nH]c2ccccc12)C(N)=O`, the LC50 was 477 µM (HD11 macrophages).
The IC10 of `Cc1cc(O)ccc1Cl` is reported as 367 µM (SH-SY5Y; cell viability, propidium iodide staining; 24 h, freely dissolved concentration).
